Experimental data pooled from the literature.
Each line is one published result; not all experiments were run side by side.
Organism: Staphylococcus epidermidis

CC[C@H](C)[C@H](N)C(=O)N[C@@H](CCCNC(=N)N)C(=O)N[C@H](C(=O)N[C@@H](Cc1c[nH]c2ccccc12)C(=O)N[C@@H](CCCCN)C(=O)N[C@@H](CCCCN)C(=O)N[C@H](C(=O)N[C@H](C(=O)N[C@@H](CCCNC(=N)N)C(=O)N[C@@H](CCCCN)C(=O)N[C@@H](Cc1c[nH]c2ccccc12)C(=O)N[C@@H](CCCCN)C(=O)N[C@@H](C)C(=O)N[C@H](C(=O)N[C@@H](Cc1c[nH]c2ccccc12)C(=O)N[C@@H](Cc1c[nH]cn1)C(N)=O)[C@@H](C)CC)C(C)C)[C@@H](C)CC)C(C)C  MIC (broth dilution; KCTC 1917): 6.3 µM
CC(C)C[C@H](NC(=O)[C@H](CCCNC(=N)N)NC(=O)CNC(=O)CNC(=O)[C@@H](N)CCCNC(=N)N)C(=O)N[C@H]1CSSC[C@@H](C(=O)N[C@H](C(=O)NCC(=O)N[C@@H](CCCNC(=N)N)C(N)=O)C(C)C)NC(=O)[C@H](C(C)C)NC(=O)[C@@H]2CSSC[C@H](NC(=O)[C@H](Cc3ccc(O)cc3)NC1=O)C(=O)N[C@@H](CCCNC(=N)N)C(=O)N[C@@H](CCCNC(=N)N)C(=O)N[C@@H](CCCNC(=N)N)C(=O)N[C@@H](Cc1ccccc1)C(=O)N2  MIC (broth microdilution; ATCC 51625; 18 h, 37 °C): 5 µg/mL
Oc1c(Br)cc(Br)c2nc3cc(C(F)(F)F)ccc3nc12  MIC (broth microdilution; 12228): 0.04 µM
O=c1n(CCNCCOS(=O)(=O)c2ccccc2)c(=O)n(S(=O)(=O)c2ccccc2)c(=O)n1S(=O)(=O)c1ccccc1  MIC (microbial growth, broth dilution): 2 µg/mL
CC[C@H](C)[C@H](N)C(=O)N[C@@H](CCCNC(=N)N)C(=O)N[C@H](C(=O)N[C@@H](Cc1c[nH]c2ccccc12)C(=O)N[C@@H](CCCCN)C(=O)N[C@@H](CCCCN)C(=O)N[C@H](C(=O)N[C@H](C(=O)N[C@@H](CCCNC(=N)N)C(=O)N[C@@H](CCCCN)C(=O)N[C@@H](CCSC)C(=O)N[C@@H](CCCCN)C(=O)N[C@@H](C)C(=O)N[C@H](C(=O)N[C@@H](Cc1ccc(O)cc1)C(=O)N[C@@H](Cc1c[nH]cn1)C(N)=O)[C@@H](C)CC)C(C)C)[C@@H](C)CC)C(C)C  MIC (broth dilution; KCTC 1917): 100 µM
Oc1c(Br)cc(Br)c2nc3ccccc3nc12  MIC (broth microdilution; 12228): 2.35 µM
Cc1cc(C)c2nc3c(Br)cc(Br)c(O)c3nc2c1  MIC (broth microdilution; MRSE 35984; 16 h, 37 °C): 0.1 µM
CC1COC2=C1C(=O)C(=O)c1c2ccc2c1C(OC(=O)CNC(=O)C(N)CO)CCC2(C)C (mixture of isomers)  MIC (GDMCC 1.143; 48 h): 63 µM
Oc1c(Br)cc(Br)c2nc3cc(Cl)ccc3nc12  MIC (broth microdilution; 12228; 16 h, 37 °C): 0.15 µM
CC(C)C[C@H](NC(=O)[C@@H](NC(=O)[C@H](CCCNC(=N)N)NC(=O)[C@H](CCC(N)=O)NC(=O)[C@H](Cc1ccccc1)NC(=O)[C@H](Cc1ccc(O)cc1)NC(=O)[C@H](CC(N)=O)NC(=O)[C@H](Cc1c[nH]c2ccccc12)NC(=O)[C@@H](NC(=O)[C@H](CCCNC(=N)N)NC(=O)[C@H](CCCCN)NC(=O)[C@@H](N)Cc1ccccc1)C(C)C)C(C)C)C(=O)N[C@H](C(=O)N[C@@H](CCCCN)C(=O)N[C@@H](CCCCN)C(=O)N[C@@H](Cc1ccc(O)cc1)C(N)=O)C(C)C  MIC (broth dilution; KCTC 1917): 25 µM
Oc1c(Br)cc(Br)c2nc3ccc(C(F)(F)F)cc3nc12  MIC (broth microdilution; 12228): 0.15 µM
CC[C@H](C)[C@H](N)C(=O)N[C@@H](CCCNC(=N)N)C(=O)N[C@H](C(=O)N[C@@H](Cc1c[nH]c2ccccc12)C(=O)N[C@@H](Cc1ccccc1)C(=O)N[C@H](C(=O)N[C@@H](CCCCN)C(=O)N[C@H](C(=O)N[C@@H](CCCNC(=N)N)C(=O)N[C@@H](CCCCN)C(=O)N[C@@H](CCSC)C(=O)N[C@@H](CCCCN)C(=O)N[C@@H](C)C(=O)N[C@H](C(=O)N[C@@H](Cc1ccc(O)cc1)C(=O)N[C@@H](Cc1c[nH]cn1)C(=O)N[C@H](C(N)=O)[C@@H](C)O)[C@@H](C)CC)C(C)C)[C@@H](C)CC)C(C)C  MIC (broth dilution; KCTC 1917): 25 µM
CC[C@H](C)[C@H](NC(=O)[C@H](CCCCN)NC(=O)[C@H](CCCCN)NC(=O)[C@H](Cc1ccccc1)NC(=O)[C@H](Cc1ccccc1)NC(=O)[C@H](CCCCN)NC(=O)[C@H](CCCCN)NC(=O)[C@H](Cc1ccccc1)NC(=O)[C@H](CCCNC(=N)N)NC(=O)[C@@H](N)CCCCN)C(=O)N[C@@H](CCCCN)C(=O)N[C@@H](CCCCN)C(=O)N[C@@H](CO)C(=O)N[C@H](C(=O)N[C@@H](CCCCN)C(=O)N[C@@H](CCCCN)C(=O)N[C@@H](CCCNC(=N)N)C(=O)N[C@H](C(=O)N[C@@H](CCCCN)C(=O)N[C@@H](CCCCN)C(=O)N[C@@H](CC(C)C)C(=O)N[C@@H](Cc1ccccc1)C(=O)N[C@@H](CCCCN)C(=O)N[C@@H](CCCCN)C(=O)N1CCC[C@H]1C(=O)N[C@@H](CCCNC(=N)N)C(=O)N[C@H](C(=O)N[C@H](C(=O)N1CCC[C@H]1C(=O)N[C@H](C(=O)N[C@@H](CO)C(=O)N[C@H](C(=O)N1CCC[C@H]1C(=O)N[C@@H](Cc1ccccc1)C(=O)O)[C@@H](C)CC)[C@@H](C)CC)[C@@H](C)CC)C(C)C)C(C)C)C(C)C  MIC (broth microdilution; clinical isolate, Mueller-Hinton broth; 20 h, 37 °C): 8 µg/mL

Repeated from above:
CC[C@H](C)[C@H](N)C(=O)N[C@@H](CCCNC(=N)N)C(=O)N[C@H](C(=O)N[C@@H](Cc1c[nH]c2ccccc12)C(=O)N[C@@H](CCCCN)C(=O)N[C@@H](CCCCN)C(=O)N[C@H](C(=O)N[C@H](C(=O)N[C@@H](CCCNC(=N)N)C(=O)N[C@@H](CCCCN)C(=O)N[C@@H](CCSC)C(=O)N[C@@H](CCCCN)C(=O)N[C@@H](C)C(=O)N[C@H](C(=O)N[C@@H](Cc1ccc(O)cc1)C(=O)N[C@@H](Cc1c[nH]cn1)C(N)=O)[C@@H](C)CC)C(C)C)[C@@H](C)CC)C(C)C  MIC (broth dilution; KCTC 1917): 100 µM
Oc1c(Br)cc(Br)c2nc3ccccc3nc12  MIC (broth microdilution; 12228): 2.35 µM
